Published values pooled from the literature.
A part holds a random share of what one study measured. Positions count from the first letter of the parent shown.

Block 1 — method: protein binding microarray; molecule type: double-stranded DNA, one strand shown; matrix: in vitro; concentration: not given; relative to: not given; reading: higher = stronger binding
Target: Histone acetyltransferase KAT6A, both winged helices, GST fusion (KAT6A, Homo sapiens, UniProt Q92794, residues 1-181)
Notes: 8-mer, flanks averaged, mean of 2 arrays, mostly near background
Residues (chain): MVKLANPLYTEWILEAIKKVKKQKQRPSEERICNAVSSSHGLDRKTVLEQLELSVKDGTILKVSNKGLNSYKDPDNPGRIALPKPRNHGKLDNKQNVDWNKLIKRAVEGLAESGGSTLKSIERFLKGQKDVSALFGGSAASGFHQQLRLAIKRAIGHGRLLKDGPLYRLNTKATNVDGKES
The E-score of `CCGTCATA` is reported as 0.201.
`GAGCCCTA` gave an E-score of -0.167.
With `CGTGACAC` the E-score was 0.177.
`AAACTCTG` has an E-score of -0.101.
`GAAATTTC` gave an E-score of -0.204.
`CGAATAAA` has an E-score of 0.031.
`GACTGTCC` gave an E-score of 0.0373.
`AAGAGCGA` has an E-score of 0.0331.
The E-score of `ATCAGGTG` is reported as -0.181.
With `CGTGGGTC` the E-score was -0.0696.
The E-score of `ATGGGTTC` is reported as -0.158.
The E-score of `ACACTTCA` is reported as -0.151.
For `AGCCGAAG`, the E-score was -0.0909.
`ACAAAATA` gave an E-score of -0.108.
`AGCTGCCA` gave an E-score of -0.094.
`CTGTCAAC` has an E-score of -0.0887.
The E-score of `GAGGTAAA` is reported as -0.194.
The E-score of `GATCCTAC` is reported as -0.0872.
For `CATTGGAG`, the E-score was 0.0195.
`CGGTCAGA` has an E-score of 0.055.
`GAAGAGTA` has an E-score of 0.0652.
With `GTGATGGA` the E-score was -0.176.
For `ACCTGAGT`, the E-score was -0.0779.
The E-score of `GGCTCCAA` is reported as -0.0635.
`AGTGAAAT` has an E-score of -0.312.

Block 2 — method: DHFR PCA, deep sequencing; matrix: yeast; with: (+)-ABA 200 µM; relative to: wild-type fitted maximum; reading: higher = stronger binding
Target: ABI1, truncated, D143A, DHFR fusion (Arabidopsis thaliana)
Notes: methotrexate growth selection, single substitutions
Starting sequence: PYL1, truncated, DHFR fusion (Arabidopsis thaliana); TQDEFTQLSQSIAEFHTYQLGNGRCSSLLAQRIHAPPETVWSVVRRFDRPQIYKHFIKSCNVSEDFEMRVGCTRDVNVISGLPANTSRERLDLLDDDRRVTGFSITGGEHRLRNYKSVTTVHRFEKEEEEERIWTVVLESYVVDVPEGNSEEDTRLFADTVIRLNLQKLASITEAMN
For `R24Y`, “relative binding score” read 86.8%.
`E127N`: “relative binding score” 103%.
`E174L`: “relative binding score” 74.4%.
`V40P`: “relative binding score” -1.69%.
For `L28Q`, “relative binding score” read 82.8%.
`R155T`: “relative binding score” 91.9%.
`S140D`: “relative binding score” 1.09%.
Under “relative binding score”, `R46M` is recorded as 84.9%.
`I172M` — result for “relative binding score”: 89.5%.
For `H122M`, “relative binding score” read 37.6%.
`E128Y` — result for “relative binding score”: 98.1%.
For `Y53W`, “relative binding score” read 98.6%.
`G148F`: “relative binding score” 66.6%.
`V121R`: “relative binding score” 2.71%.
`V44N`: “relative binding score” -18.4%.
For `N61A`, “relative binding score” read 104%.
Under “relative binding score”, `D159F` is recorded as 6.05%.
`V70S` — result for “relative binding score”: 84.4%.
For `E109S`, “relative binding score” read 101%.
For `E127K`, “relative binding score” read 104%.
For `V136G`, “relative binding score” read 19.2%.
`R113P`: “relative binding score” 34.7%.
Under “relative binding score”, `V40I` is recorded as 78.1%.
For `P50S`, “relative binding score” read 5.31%.
`Y115V` — result for “relative binding score”: -5.02%.

Block 3 — method: aptamer microarray, sandwich; molecule type: DNA with 2'F-ANA; matrix: in vitro; concentration: 200 nM; with: Cy3 exosite-II aptamer, 400 nM; reading: higher = stronger binding; sequence: GGTTGGTGTGGTTGG
Target: Prothrombin, mature alpha-thrombin (F2, Homo sapiens, UniProt P00734)
Notes: whole 15-mer aptamer, many near background
`2'F-ANA at 1 2 5 7 8 9 10 12 14 15` — result for “mean fluorescence intensity”: 46.1 a.u.
Under “mean fluorescence intensity”, `2'F-ANA at 1 3 4 5 8 9 10 12 14 15` is recorded as 111 a.u.
For `2'F-ANA at 2 6 9 11 12 13 14`, “mean fluorescence intensity” read 306 a.u.
`2'F-ANA at 1 3 5 6 7 8 10 13` — result for “mean fluorescence intensity”: 51.9 a.u.
Under “mean fluorescence intensity”, `2'F-ANA at 1 2 4 5 6 7 8 10 11 12 13 14` is recorded as 53.8 a.u.
`2'F-ANA at 4 5 7 8 13 14 15` — result for “mean fluorescence intensity”: 47.7 a.u.
`2'F-ANA at 1 5 7 8 9 12 15`: “mean fluorescence intensity” 122 a.u.
For `2'F-ANA at 1 2 6 7 9 10 11 12 13 14 15`, “mean fluorescence intensity” read 48.3 a.u.
Under “mean fluorescence intensity”, `2'F-ANA at 2 4 5 6 7 8 9 10 11 12` is recorded as 137 a.u.
Under “mean fluorescence intensity”, `2'F-ANA at 4 5 7 12 13 15` is recorded as 90 a.u.
`2'F-ANA at 2 3 6 8 10 11 13 14` — result for “mean fluorescence intensity”: 225 a.u.
`2'F-ANA at 4 5 6 9 10 11 15` — result for “mean fluorescence intensity”: 48.9 a.u.
For `2'F-ANA at 6 7 8 14 15`, “mean fluorescence intensity” read 209 a.u.
`2'F-ANA at 1 5 7 12 15` — result for “mean fluorescence intensity”: 108 a.u.
`2'F-ANA at 1 3 4 5 6 8 13 15` — result for “mean fluorescence intensity”: 55.1 a.u.
`2'F-ANA at 3 4 5 7 12 13` — result for “mean fluorescence intensity”: 169 a.u.
For `2'F-ANA at 2 3 4 6 10 11 12`, “mean fluorescence intensity” read 293 a.u.
Under “mean fluorescence intensity”, `2'F-ANA at 1 4 5 9 10 11 12 13 14 15` is recorded as 47.6 a.u.
`2'F-ANA at 6 9 10 14`: “mean fluorescence intensity” 106 a.u.
Under “mean fluorescence intensity”, `2'F-ANA at 1 7 9 10 12` is recorded as 109 a.u.
Under “mean fluorescence intensity”, `2'F-ANA at 2 6 10 11 12 14` is recorded as 83.1 a.u.
Under “mean fluorescence intensity”, `2'F-ANA at 3 4 7 8 10 11` is recorded as 312 a.u.
`2'F-ANA at 1 2 5 7 9 10 11 12 14` — result for “mean fluorescence intensity”: 54.3 a.u.
`2'F-ANA at 2 3 5 6 8 9 10 13 14`: “mean fluorescence intensity” 50 a.u.
For `2'F-ANA at 2 3 5 8 9 11 12 13 14 15`, “mean fluorescence intensity” read 58.9 a.u.

Block 4 — method: RNA Bind-n-Seq; molecule type: RNA; matrix: in vitro; concentration: 365 nM; relative to: no-protein control; reading: higher = stronger binding
Target: RNA binding protein fox-1 homolog 2, RRM domain, GST-SBP tag (RBFOX2, Homo sapiens, UniProt O43251-10, residues 100-194)
Notes: natural RNA segment, single round, ends assumed
Residues (chain): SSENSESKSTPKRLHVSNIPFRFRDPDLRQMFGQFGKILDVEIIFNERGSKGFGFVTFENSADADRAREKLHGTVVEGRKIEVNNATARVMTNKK
For `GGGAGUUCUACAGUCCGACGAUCUGCUCCAUGGGGCCCUGCUGGCUCCAUGGGGCCCAGGUGCAAAGGGUUUCUGAAAAACAGCAGGAUUAAGUACUGAAAGAGCCCAACACAAUUACCCUGUAAACUCUCUGUGGAAUUCUCGGGUGCCAA`, “RBNS enrichment (R)” read 0.396.
`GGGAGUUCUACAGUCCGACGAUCUGGCGGAGAUGCUUCUAAGGCAUGGUCGGGGGAGAGGGCCAACAACUGUCCCUCCUUGAGCACCAGCCCCACCCAAGCAAGCAGACAUUUAUCUUUUGGGUCUGUCCUCUUGGAAUUCUCGGGUGCCAA`: “RBNS enrichment (R)” 0.331.
`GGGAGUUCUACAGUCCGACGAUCGUCUGUCUUUGUCCAGGUUUCAGACAUUUCUAGGUUGGGGAAGAUGCUAUUGGGAAACCUCUUCUCCGUGACACAGAAUGUUCUGGGUGGGAGCCGCCCUUCUUCAUCUUUGGAAUUCUCGGGUGCCAA`: “RBNS enrichment (R)” 0.327.
Under “RBNS enrichment (R)”, `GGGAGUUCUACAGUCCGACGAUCCCCGCUCUGGGCUUCUCUCAACCCCAACCCUGGGUUUUCUCCUAGACUCUUGGGCUGCGAUGCAUCACCCUUGUUACCCUGCAGUGGCUCUUACAAAACCACUUCCUCCCUGGAAUUCUCGGGUGCCAA` is recorded as 1.01.
`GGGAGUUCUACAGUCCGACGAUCUCUGUUCUCAGAGACUCACCCCCAGCCCUGACCCUAGAAUUUAGGGAUAGCCAGGAAGUUUCUAGUUUGUGUAACCUAGAAGGGUCACUUUAAUAAAAAUUGUUAUGAACUGGAAUUCUCGGGUGCCAA`: “RBNS enrichment (R)” 0.347.
`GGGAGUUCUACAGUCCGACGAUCCCAGCUCUCCCUCUGGCCCUGCCUUCUUCGGGGAACUCCUGGAAAUAUCAGUUACUCAGCCCUGGGCCCCACCACCUAGGCCACUCCUCCAAAGGAAGUCUAGGAGCUGGUGGAAUUCUCGGGUGCCAA`: “RBNS enrichment (R)” 0.366.
`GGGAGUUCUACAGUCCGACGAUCGUUUUACAGACUAUGAAGCUGAGGGGGGAUGGUAGGCACAGAUGUGUGGCAACCCUGCUCUGUGCUCUGAAACCAAAGUGUGUCCUGUCUUGUCUGUCUCUCACCCUGCCUGGAAUUCUCGGGUGCCAA`: “RBNS enrichment (R)” 0.674.
Under “RBNS enrichment (R)”, `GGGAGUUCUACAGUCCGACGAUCAGCAUGCCUUACCCAGCUGGGAAGUCUCUGCCCUGAUCUGGUACUCCUUGUAGUAAGCUGUUUUCUGCUCAGCCACUGGGCUCUUUCACUUUUUUAGUUCUUAAAAAUUUUGGAAUUCUCGGGUGCCAA` is recorded as 0.699.
`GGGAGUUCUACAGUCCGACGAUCUUACUCCCCCUGAGCAGCGAGCCUGCGUCUGUCUCAGCUGUCCAGCGCUGAGGGCCAGGGUCUUGUGCUGUGGGGCUGGGGGAUGCCCUCUUUUCUAUAUUUAUUUCAUAUGGAAUUCUCGGGUGCCAA` — result for “RBNS enrichment (R)”: 0.457.
Under “RBNS enrichment (R)”, `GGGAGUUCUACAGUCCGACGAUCUCCCCUCUGCACUCUCUCACAGGGACAAACUUGCAGAUACAUCCGAUAGGGUCUUGGCUUUCUACUGUCCUUAUUUCUAGAUUAUUUCCUUGUAAGUUGGAAAGAAUGUUUGGAAUUCUCGGGUGCCAA` is recorded as 0.251.
`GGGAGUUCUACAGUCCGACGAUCGUCUGGUUCUAAUAAUUGGUACCCUCUUUCUCGGUUCCAUAUUUUUAACAACCCUUUAACAAACUAAAUAAUUUUUAAGCAGCCAGGAAAUUUUAGAGGACAGAUAUUUGUGGAAUUCUCGGGUGCCAA` — result for “RBNS enrichment (R)”: 0.606.
`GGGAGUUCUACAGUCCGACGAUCAAGAUGCUACUGUUUUAAAGGAAAAAAAAAAAAAAAAGUACUGAUCUUCAAUAUGAAGACAUGAGCUUUUCUCGCAGGAAAUUUUCUUUUUCACAGAACUGGUGUCAGGAUGGAAUUCUCGGGUGCCAA`: “RBNS enrichment (R)” 0.663.

For quick reference, copied from above (block 2):
For `H122M`, “relative binding score” read 37.6%.
`E128Y` — result for “relative binding score”: 98.1%.
`S140D`: “relative binding score” 1.09%.
`V40P`: “relative binding score” -1.69%.
Under “relative binding score”, `V40I` is recorded as 78.1%.
